Measured values from different studies.
Each line is one published result; not all experiments were run side by side. “And” joins repeats or separate records; there may be more than shown. Numbers after ± are the reported error.

SMILES | cell line | assay | system | setting | how to read | endpoint | result
CCn1cc(-c2cc(Cn3ccoc3=N)cc3c2CCN([C@@H](C)c2cc(OC)ccn2)C3=O)c(C(F)(F)F)n1 | IM95 | cell growth, inhibitor |  | 120 h |  | EC50 | 721 nM
NC(=O)NOCCCCCCCCCCCCCCCCCCCC[P+](c1ccccc1)(c1ccccc1)c1ccccc1.O=C([O-])C(F)(F)F | HCT-116 | cell growth, live-cell imaging |  | 0.15 µM, control at 90% confluence |  | cell confluence | 86.6 ± 3.59%
Cn1c(Nc2nc3ccc(C(F)(F)F)cc3s2)nc2cc(C(=O)NCCOCCO)ccc21 | SH-SY5Y | RNA-seq, measured: PLK2 mRNA |  | 5 µM, 5 h | reference: untreated cells | fold change | 2.12
CCCCc1oc2ccc(NS(C)(=O)=O)cc2c1C(=O)c1ccc(OCCCN(CCCC)CCCC)cc1 | human embryonic stem cell aggregates | mRNA level, microarray, measured: RIPPLY1 |  | 0.5 µM, 120 h | reference: untreated, down-regulated | fold change | 2.3 fold
CC/C(=N\NC(=O)NCc1cccc(O)c1)c1ccc(O)c(C)c1O | SK-OV-3 | ATP | 2D monolayer culture | 1 µM, 4 days | reference: untreated | relative cell number | 105%
CCN(Cc1cccc(OC)c1)c1ccc(CO)c(Cl)c1 | RBE | cell viability, CellTiter-Glo |  |  |  | IC50 | 120 nM
Cc1cccc(-c2[nH]c(CNc3ccccc3F)nc2-c2ccc3ncnn3c2)n1 | bone marrow CD138+ myeloma cells | XTT |  | 0.8 µM, phenol red-free RPMI |  | viability | 20%
Cc1ccc(CNC(=O)Cn2cc(CSc3nc4ccccc4[nH]3)nn2)cc1 | Caco-2 | MTT |  | 3.91 ppm |  | cytotoxicity | 21.6%
COc1cc(Oc2ccnc3cc(OC)c(OC)cc23)ccc1NC(=O)NC(C)c1nccs1 (stereo not drawn) | hiPSC-derived cardiomyocytes (iCell) | impedance (xCELLigence Cardio) |  | concentration not given, 2 h | reference: control | beat amplitude | 99%
OCc1ccc(-c2nn(Cc3ccccc3)c3ncccc23)o1 | RBE | cell viability, CellTiter-Glo |  |  |  | IC50 | 15300 nM
COc1cnc2cccc(N3CCc4c(cc(Cn5ccnc5C)cc4-c4cn(C)nc4C(F)(F)F)C3=O)c2c1 | Caov-3 | cell growth, inhibitor |  | 120 h |  | EC50 | 26300 nM
CCN(Cc1ccc(OC)cc1)c1ccc(CO)c(Cl)c1 | RBE | cell viability, CellTiter-Glo |  |  |  | IC50 | 200 nM
O=C(C[C@@H](C(F)F)n1ccc(F)n1)N1CCC(O)(Cn2cnc3c(cnn3-c3ccc(F)cc3)c2=O)CC1 | CHP-212 parental | PI flow cytometry |  | 1 µM, 24 h |  | G1 phase cells | 74.8%
Nc1nc(Cn2nnc(-c3ccccc3F)n2)nc(N2CCOCC2)n1 | BV-2 | measured: caspase-8 |  | 30 nM, with: high glucose | reference: high glucose | protein level | decreased
CCn1cc(-c2cc(Cn3ccnc3)cc3c2CCN([C@H](c2cc(OC)ccn2)C2CC2)C3=O)c(C(F)(F)F)n1 | Rec1 | cell growth, inhibitor |  | 120 h |  | EC50 | 6470 nM
CNC(=O)c1c(F)cccc1Nc1nc(Nc2cc3c(cc2OC)CCN3C(=O)CN(C)C)nc2[nH]ccc12 | hiPSC-derived cardiomyocytes (iCell) | impedance |  | concentration not given, 24 h | reference: control | cell index | 86.6%
O=C(Nc1nnc2n3c(nc(-c4ccc(Cl)cc4)c1-2)SCC3=O)c1ccccc1 | NCI-H322M | SRB |  | 10 µM, NCI60 single-dose screen | reference: untreated | cell growth | 98.9%
O=c1[nH]nc(OCCCc2ccc(Cl)cc2)c(NCc2cccnc2)c1Br | HEK293T | RNA-seq, measured: MTHFR mRNA |  | 10 µM, 6 h | reference: vehicle | log2 fold change | 0.0726
COc1c(Cl)cc2c([nH]c3cnccc32)c1NC(=O)c1cccnc1C | hiPSC-derived cardiomyocytes (iCell) | impedance (xCELLigence Cardio) |  | concentration not given, 2 h | reference: control | beat amplitude | 98.6%
CN1C(=O)C2(NN=C(c3ccccc3)S2)c2ccccc21 (stereo not drawn) | H2373 and H2461 mesothelioma | MTT |  | 10 µM, 24 h |  | viability loss | 60 to 80%
COc1ccc(-n2nc(C(C)=O)s/c2=N\N=C(/C)c2ccc(NC(=O)c3ccc(C)cc3)cc2)cc1 | MCF7 |  |  | 0.625 µM |  | toxicity | 91.8%
NC(=O)NOCCCCCCCCCCCCCC[P+](c1ccccc1)(c1ccccc1)c1ccccc1.O=C([O-])C(F)(F)F | HCT-116 | cell growth, live-cell imaging |  | 1 µM, control at 90% confluence |  | cell confluence | 28.6%
Cc1[nH]nc2ccc(-c3cncc(OC[C@@H](N)Cc4ccccc4)c3)cc12 | hiPSC-derived cardiomyocytes (iCell) | impedance |  | concentration not given, 24 h | reference: control | cell index | 95.2%
O=C(/C=C/C=C/C=C/C1CCCCC1)NC1=C[C@@](O)(/C=C/C=C/C=C/C(=O)NC2=C(O)CCC2=O)[C@@H]2O[C@@H]2C1=O | SNU-16 | cell growth, CellTiter-Glo |  | 78 h |  | GI50 | 10200 nM
OCc1ccc(N2CCc3cccc(F)c3C2)cc1Cl | RBE | cell viability, CellTiter-Glo |  |  |  | IC50 | 170 nM
Cc1cccc(C)c1-n1nc(C)c(C(=O)Nc2ccc3ccccc3n2)c1C | Wnt-HEK293 | Wnt/β-catenin signalling, inhibitor, luciferase reporter |  | 1 µM |  | inhibition | < 50%
COC(=O)[C@]12CCC(C)(C)C[C@H]1[C@H]1C(=O)C=C3[C@@]4(C)C=C(C#N)C(=O)C(C)(C)[C@@H]4CC[C@@]3(C)[C@]1(C)CC2 | HepG2 | high content imaging, measured: nuclear size |  | 24 h, representative mode |  | point of departure | 3.31 µM

SMILES | cell line | assay | system | setting | how to read | endpoint | result
C[C@H](CCC(=O)NCCS(=O)(=O)O)[C@H]1CC[C@H]2[C@@H]3CC[C@@H]4C[C@H](O)CC[C@]4(C)[C@H]3CC[C@]12C | human PKD renal epithelial cells | cell confluence |  | 20 µM, 24 h | reference: untreated | proliferation increase | 49%
COc1nc(NCc2cn(-c3ccc(C(=O)Nc4ccc(C(F)(F)F)cc4)cc3)nn2)nc(OC)n1 | HCT-116 | sandwich ELISA | culture supernatant | IC50, 72 h, unit not given | reference: untreated | VEGF protein level | 0.62
Cc1cc(N2CCc3c(c(C)nn3CC34CCC(NC(=O)[C@@H]5COCCN5)(CC3)CC4)C2)c2cnn(C)c2n1 | human PBMC | ISG expression, qRT-PCR, measured: 5-ISG panel |  | 100 nM, with: ssRNA |  | inhibition | 96 ± 1%
C=Cc1c2[n-]c(c1C)/C=c1\[n-]/c(c(C)c1C=C)=C\c1[n-]c(c(CCC(=O)O)c1C)/C=c1\[n-]c(c(C)c1CCC(=O)O)=C2.[Sn+4] | SH-SY5Y | RNA-seq, measured: TMC6 mRNA |  | 5 µM, 5 h | reference: untreated cells | fold change | 1.64
NC(=O)NOCCCCCCCCCCCCCCCC[P+](c1ccccc1)(c1ccccc1)c1ccccc1.O=C([O-])C(F)(F)F | HCT-116 | cell growth, live-cell imaging |  | 0.5 µM, control at 90% confluence |  | cell confluence | 48.4%
CCOC(=O)Nc1ccc(NCc2ccc(F)cc2)nc1N | BV-2 |  |  | 50 µM, 1.5 h |  | IP1 accumulation increase | 6%
[177Lu+3].[Cl-].[Cl-].[Cl-] | 4T1 | flow cytometry |  | 0.4 Bq/cell, 72 h |  | dead cells | 34.2%
CC(=O)c1nn(-c2ccc(Cl)cc2)/c(=N/N=C(\C)c2ccc(NC(=O)c3ccc(C)cc3)cc2)s1 | MCF7 |  |  | 1.25 µM |  | toxicity | 82.1%
CC(C)C[C@H](NC(=O)[C@H](CCc1ccccc1)NC(=O)CN1CCOCC1)C(=O)N[C@@H](Cc1ccccc1)C(=O)N[C@@H](CC(C)C)C(=O)[C@@]1(C)CO1 | HCC1937 | LC-MS/MS |  | concentration not given, after pulse treatment |  | intracellular content | 7 pmol/mg protein
CCN(Cc1ccccc1OC)c1ccc(CO)c(Cl)c1 | RBE | cell viability, CellTiter-Glo |  |  |  | IC50 | 430 nM
Nc1cccc2c1C(=O)N(C1CCC(=O)NC1=O)C2=O (stereo not drawn) | RPMI-8226 | flow cytometry, measured: CD117 |  | concentration not given | reference: comparator compound alone | surface marker level | 155%
COc1cc(/C=C/C(=O)N2CCC=CC2=O)cc(OC)c1OC | MDA-MB-468 cells | quantitative RT-PCR, measured: GSTZ1 |  | 30 µM, 6 h | reference: time zero | mRNA level | 114 ± 8.1%
CCN(Cc1ccccc1)c1ccc(CO)c(Cl)c1 | RBE | cell viability, CellTiter-Glo |  |  |  | IC50 | 120 nM
NC(=O)NO | HCT-116 | cell growth, live-cell imaging |  | 400 µM, control at 90% confluence |  | cell confluence | 11.4 ± 2.17%
N#Cc1c(Oc2ccc(F)c(NC(=O)Cc3cccc(C(F)(F)F)c3)c2)ccc2nc(NC(=O)C3CC3)sc12 | SK-MEL-239 | ERK phosphorylation, inhibitor, Western blot, measured: p-ERK/total ERK |  | 1 h |  | IC75 | 427 nM
CC[C@H](CO)Nc1nc(NCc2ccc(-c3ccccn3)cc2)c2ncn(C(C)C)c2n1 | NCI60 tumour cell lines |  |  |  |  | TGI | 2570 nM
Cc1cnc(NC2CCOCC2)nc1-n1cnc(C(=O)NC(CN)c2cc(F)cc(Cl)c2)c1 (stereo not drawn) | Rec1 | flow cytometry |  | 1 µM, 24 h |  | S phase cells | 14.4%
Cn1cc(-c2ccc(-c3cncc(Cl)c3N3CCC4(CCNC4=O)CC3)cc2)cn1 | COLO 205 | gene expression, microarray, measured: TCAF2 mRNA |  | concentration not given, 2 h | reference: untreated cells | log2 fold change | 2.62
C=CC1=C(C)c2cc3[n-]c(cc4nc(cc5[n-]c(cc1n2)c(C)c5C=C)C(C)=C4CCC(=O)O)c(CCC(=O)O)c3C.[Zn+2] | SH-SY5Y | RNA-seq, measured: SH3TC1 mRNA |  | 5 µM, 5 h | reference: untreated cells | fold change | 1.72
Cl.Cl.NCCNS(=O)(=O)c1ccc(Cl)c2ccncc12 | SK-OV-3 | ATP | 3D gellan gum culture | 0.1 µM, 4 days | reference: untreated | relative cell number | 96%
Cc1nc(Nc2ncc(C(=O)Nc3c(C)cccc3Cl)s2)cc(N2CCN(CCO)CC2)n1 | CAPAN-1 | cell viability, MTT |  | mutant KRAS liver metastasis |  | IC50 | 313 nM
Cc1sc2c(c1C)C(c1ccc(Cl)cc1)=N[C@@H](CC(=O)NCCCCCCCCNC(=O)COc1cccc3c1C(=O)N(C1CCC(=O)NC1=O)C3=O)c1nnc(C)n1-2 (stereo partly drawn) | 4T1 | wound healing |  | concentration not given, laser irradiation |  | cell motility | 37.8% and 34.3% and 37%
[Cl-].c1csc([I+]c2cccs2)c1 | LS174T |  |  | 10 µM, 1 h | reference: control | extracellular H2O2 production | 57 ± 3%
NC(=O)NOCCCCCCCCCCCC[P+](c1ccccc1)(c1ccccc1)c1ccccc1.O=C([O-])C(F)(F)F | HCT-116 | cell growth, live-cell imaging |  | 1.5 µM, control at 90% confluence |  | cell confluence | 65.4 ± 6.25%
CCN(CC)CCCC(C)Nc1ccnc2cc(Cl)ccc12 (stereo not drawn) | hiPSC-derived cardiomyocytes | perforated patch voltage clamp |  | 5 µM, depolarization to +10 mV |  | peak L-type calcium current | 58.9 pA and 112 pA and 3.1 pA and 29.3 pA and 293 pA
CCN(Cc1c(F)cccc1OC)c1ccc(CO)c(Cl)c1 | RBE | cell viability, CellTiter-Glo |  |  |  | IC50 | 150 nM
CC(C)NCC(O)c1ccc(O)c(O)c1 (stereo not drawn) | mouse ventricular cardiomyocytes |  |  | dose not given, 0.139 s |  | sarcomere length | 1.59 µm

A few entries again:
SMILES | cell line | assay | system | setting | how to read | endpoint | result
C=CC1=C(C)c2cc3[n-]c(cc4nc(cc5[n-]c(cc1n2)c(C)c5C=C)C(C)=C4CCC(=O)O)c(CCC(=O)O)c3C.[Zn+2] | SH-SY5Y | RNA-seq, measured: SH3TC1 mRNA |  | 5 µM, 5 h | reference: untreated cells | fold change | 1.72
Cl.Cl.NCCNS(=O)(=O)c1ccc(Cl)c2ccncc12 | SK-OV-3 | ATP | 3D gellan gum culture | 0.1 µM, 4 days | reference: untreated | relative cell number | 96%
Cc1nc(Nc2ncc(C(=O)Nc3c(C)cccc3Cl)s2)cc(N2CCN(CCO)CC2)n1 | CAPAN-1 | cell viability, MTT |  | mutant KRAS liver metastasis |  | IC50 | 313 nM
Cc1sc2c(c1C)C(c1ccc(Cl)cc1)=N[C@@H](CC(=O)NCCCCCCCCNC(=O)COc1cccc3c1C(=O)N(C1CCC(=O)NC1=O)C3=O)c1nnc(C)n1-2 (stereo partly drawn) | 4T1 | wound healing |  | concentration not given, laser irradiation |  | cell motility | 37.8% and 34.3% and 37%
[Cl-].c1csc([I+]c2cccs2)c1 | LS174T |  |  | 10 µM, 1 h | reference: control | extracellular H2O2 production | 57 ± 3%
